Experimental data of several laboratories.
Each line is one published result; not all experiments were run side by side. Values joined by “and” are separate records of one study, mostly repeats; a detail may differ. ± marks the error that the study gave.

Cn1cc(-c2nc(N[C@@H]3CCCC[C@@H]3N)c(F)c3c2C(=O)NC3)cn1
adverse events (any bleeding; patients with relapsed or refractory AML; oral, 160 mg once daily): 67%

Cn1ncc(-c2nc(N[C@H]3CC[C@H](N)CC3)ncc2Cl)c1CC1CC1
febrile neutropenia incidence (phase I dose escalation; human patients; dose not given, grade 3 or higher TEAE): 33%

COc1ncccc1-c1cnn2ccc(N3CCN(C(=O)OC(C)C)CC3)nc12
drug concentration (mouse nerve ligation model, plasma; oral, 30 mg/kg, 180 min after last dose, repeat dosing day 1): 4.2 µM

Cn1cncc1-c1c(F)cncc1NC(=O)c1c(N)nn2cc(F)cnc12
grade ≥3 neutrophil decrease incidence (human patients; oral, 220 mg once daily): 0%

CO[C@H]1C[C@@H]2CC[C@@H](C)[C@@](O)(O2)C(=O)C(=O)N2CCCC[C@H]2C(=O)O[C@H]([C@H](C)C[C@@H]2CC[C@@H](OC(=O)NCCOCCOCCOCCOCCOCCOCCOCCOCCC(=O)N3CCc4cc(Cn5nc(-c6ccc7oc(N)nc7c6)c6c(N)ncnc65)ccc4C3)[C@H](OC)C2)C[C@@H](O)[C@H](C)/C=C(\C)[C@@H](O)[C@@H](OC)C(=O)[C@H](C)C[C@H](C)/C=C/C=C/C=C/1C
Fatigue AE leading to dose reduction (patients with advanced solid tumours; intravenous, 1.6 mg/3 mg weekly, grade ≥3): 0%

CCc1ccc(CC/C=C/c2ccc3c(c2)C(=O)CC3)cc1
Albumin (Sprague-Dawley rat, male; oral, 120 mg/kg/day, 14 days): 33.1 g/L

O=C(Nc1ccc2c(c1)B(O)OC2)c1ccc(Oc2ccccc2)cc1
donor concentration (PAMPA; pre-coated trilayer membrane; 200 µM, 5 h, pH 7.4, donor plate, PBS): 156 ± 8.5 µM

[O-][S+]1CCc2nc(N3CCC(c4ncc(Cl)cn4)CC3)nc(NC3(CO)CCC3)c21 (centres unmarked)
subjects with adverse events (phase I trial, measured: abnormal gastrointestinal sounds; idiopathic pulmonary fibrosis patients; 18 mg twice daily): 10%

CC(C)CC(=O)OC[C@H]1O[C@@](C#N)(c2ccc3c(N)ncnn23)[C@H](O)[C@@H]1O
remaining compound (dog whole blood; 5 µM, 15 min): 63.5 ± 3.85%

N[C@@H]1c2ccccc2OC12CCN(c1cnc3c(N4CCCc5ncccc54)n[nH]c3n1)CC2
TEAE causing dose reduction (advanced solid tumour patients; oral, 10 mg once daily): 0%

CC(C)[C@@H]1CC[C@@H](C)C[C@@H]1O
alanine aminotransferase (acute oral toxicity OECD; Swiss albino mice, serum; oral, 300 mg/kg): 55.7 ± 3.24 U/L

CCCCCCCCCCCCCCCC(=O)N[C@@H](CCC(=O)NCCCC[C@H](NC(=O)[C@H](CC(=O)O)NC(=O)[C@H](CO)NC(=O)[C@@H](NC(=O)[C@H](Cc1ccccc1)NC(=O)[C@@H](NC(=O)CNC(=O)[C@H](CCC(N)=O)NC(=O)[C@H](CO)NC(=O)[C@@H](N)Cc1c[nH]cn1)[C@@H](C)O)[C@@H](C)O)C(=O)N[C@@H](CO)C(=O)N[C@@H](CCC(=O)O)C(=O)N[C@@H](Cc1ccc(O)cc1)C(=O)N[C@@H](CC(C)C)C(=O)N[C@@H](CC(=O)O)C(=O)N[C@@H](CO)C(=O)N[C@@H](CCC(=O)O)C(=O)N[C@@H](CCCNC(=N)N)C(=O)N[C@@H](C)C(=O)N[C@@H](CCCNC(=N)N)C(=O)N[C@@H](CC(=O)O)C(=O)N[C@@H](Cc1ccccc1)C(=O)N[C@H](C(=O)N[C@@H](C)C(=O)N[C@@H](Cc1c[nH]c2ccccc12)C(=O)N[C@@H](CC(C)C)C(=O)N[C@@H](CCC(=O)O)C(=O)N[C@@H](C)C(=O)NCC(=O)NCC(=O)O)C(C)C)C(=O)O
treatment-related adverse events (measured: Dyspepsia; humans CrCl at least 90 mL/min; subcutaneous, 100 µg single dose): 12.5%

C[C@@H](NC(=O)N1C(=O)[C@H](Cc2ccnc(N)c2)[C@H]1C(=O)O)C1CCCCC1
incidence of hypokalemia (healthy adult Chinese volunteers; continuous intravenous infusion, 0.3 mg/kg/h, 5-day infusion, CTCAE 5.0 grading): 0%

C[C@]12CC[C@H](O)CC1=CC[C@@H]1[C@@H]2CC[C@]2(C)C(n3cnc4ccccc43)=CC[C@@H]12.Cl
oral bioavailability (male CD-1 mice, plasma; 10 mg/kg oral vs 1 mg/kg intravenous): 5.88%

O=C(O)CCC(CP(=O)(O)O)C(=O)O (centres unmarked)
AUC(0-t) (NSG mice, C4-2 xenograft, tumor; intravenous, 3 mg/kg, 0.25 to 6 h): 7.2 ± 1.2 nmol·h/g

O=S(=O)([O-])C(F)(F)C(F)(F)C(F)(F)C(F)(F)C(F)(F)C(F)(F)C(F)(F)C(F)(F)F.[K+]
tissue concentration (LC-ESI-MS/MS; EtOH-fed mice, kidney; dose not given; reference: pair-fed mice): increased

CC(=O)c1c(C)c2cnc(Nc3ccc(C4CCN(CCS(C)(=O)=O)CC4)cn3)nc2n(C2CCCC2)c1=O
patients with any TEAE (HR+/HER2- advanced breast cancer patients; oral, 300 mg): 100%

CCCCCOc1ccc(-c2ccc(-c3ccc(C(=O)N[C@H]4C[C@@H](O)[C@@H](OCC[N+](C)(C)C)NC(=O)[C@@H]5[C@@H](O)[C@@H](C)CN5C(=O)[C@H]([C@@H](C)O)NC(=O)[C@H]([C@H](O)[C@@H](O)c5ccc(O)cc5)NC(=O)[C@@H]5C[C@@H](O)CN5C(=O)[C@H]([C@@H](C)O)NC4=O)cc3)cc2)cc1
aspartate aminotransferase (adult ICU patients, mITT, serum; dose not given, day 30): 23.3 U/L

COc1ccc2nc3cc(Cl)ccc3c(Nc3cc(CN4CCCC4)c(O)c(CN4CCCC4)c3)c2n1
red blood cell count (mouse, blood; intraperitoneal, 14 mg/kg): 8.98 10¹²/L

[2H]C([2H])([18F])[C@]([2H])(N)C(=O)O
tissue uptake (PET; athymic nude mice, U-87 MG, muscle; dose not given, 15 min post-injection): 1.45 ± 0.22 %ID/cc

O=C(Nc1ccccc1)C1CCN(C(=O)Oc2cccnc2)CC1
subjects with dry mouth (adverse event reporting; healthy women; oral, 20 mg, 7 days): 14.3%

CC[C@H](C)[C@H](NC(=O)[C@H](CCCCN)NC(=O)[C@H](CCC(=O)O)NC(=O)[C@H](CCCCN)NC(=O)[C@H](CO)NC(=O)[C@H](CCCCN)NC(=O)[C@H](CCCNC(=N)N)NC(=O)[C@H](Cc1ccccc1)NC(=O)[C@H](Cc1ccccc1)NC(=O)[C@H](CC(=O)O)NC(=O)CNC(=O)[C@H](CC(C)C)NC(=O)[C@@H](N)CC(C)C)C(=O)NCC(=O)N[C@@H](CCCCN)C(=O)N[C@@H](CCC(=O)O)C(=O)N[C@@H](Cc1ccccc1)C(=O)N[C@@H](CCCCN)C(=O)N[C@@H](CCCNC(=N)N)C(=O)N[C@H](C(=O)N[C@H](C(=O)N[C@@H](CCC(N)=O)C(=O)N[C@@H](CCCNC(=N)N)C(=O)N[C@H](C(=O)N[C@@H](CCCCN)C(=O)N[C@@H](CC(=O)O)C(=O)N[C@@H](Cc1ccccc1)C(=O)N[C@@H](CC(C)C)C(=O)N[C@@H](CCCNC(=N)N)C(=O)N[C@@H](CC(N)=O)C(=O)N[C@@H](CC(C)C)C(=O)N[C@H](C(=O)N1CCC[C@H]1C(=O)N[C@@H](CCCNC(=N)N)C(=O)N[C@H](C(=O)N[C@@H](CCC(=O)O)C(=O)N[C@@H](CO)C(=O)O)[C@@H](C)O)C(C)C)[C@@H](C)CC)C(C)C)[C@@H](C)CC
remaining intact peptide (LC-MS; 50% pooled human serum in Tris-HCl buffer; 40 µM, 1 h, pH 7.5, 37 °C; reference: 0 h value): 4.07%

O=C(O)CCCOc1ccc(F)cc1-c1cc(-c2ccccc2C(F)(F)F)n(-c2ccccc2)n1
relative organ weight (female Crl:CD(SD) rats, salivary glands; intravenous, 25 µg/kg, 1 d): 0.2 ± 0.01 g%

C[C@H]1COCCN1c1nc(NCc2cccnc2C(F)(F)F)c2cccnc2n1
QRS change (anaesthetized rat; intravenous, 30 mg/kg; reference: control): 17%

Nc1nc2cc(-c3ccc4ncc(C(=O)N5CCOCC5)n4c3)ccc2o1
respiratory failure adverse events (human, advanced solid tumours): 6%

CC(C)C[C@H](NC(=O)[C@H](CCCCN)NC(=O)OCC1c2ccccc2-c2ccccc21)C(=O)N[C@H](C(=O)N[C@@H](Cc1ccccc1)C(=O)N[C@@H](Cc1ccccc1)C(=O)N[C@@H](CCCCN)C(=O)NCC(=O)N[C@@H](Cc1ccccc1)C(=O)N[C@@H](C)C(=O)N[C@@H](Cc1c[nH]c2ccccc12)C(=O)N[C@@H](CC(N)=O)C(=O)N[C@H](C(=O)N[C@H]1CSSC[C@@H](C(=O)N[C@@H](Cc2c[nH]cn2)C(=O)N[C@@H](CCCNC(=N)N)C(=O)N[C@@H](CCCNC(=N)N)C(=O)N[C@@H](C)C(=O)N[C@@H](CC(N)=O)C(N)=O)NC(=O)[C@H](C(C)C)NC(=O)[C@H](CCCNC(=N)N)NC(=O)[C@H](C(C)C)NC(=O)CNC(=O)[C@H](CC(N)=O)NC(=O)[C@H](CCCNC(=N)N)NC(=O)[C@H](Cc2ccc(O)cc2)NC(=O)[C@H](C(C)C)NC1=O)C(C)C)C(C)C
MCV (ICR mouse, blood; intramammary, 5 mg/kg, day 5, 3 d dosing): 40.9 ± 0.64 fL

CN[C@H](CC(C)C)C(=O)N[C@H]1C(=O)N[C@@H](CC(N)=O)C(=O)N[C@H]2C(=O)N[C@H]3C(=O)N[C@H](C(=O)N[C@H](C(=O)O)c4cc(O)cc(O)c4-c4cc3ccc4O)[C@H](O)c3ccc(c(Cl)c3)Oc3cc2cc(c3O[C@@H]2O[C@H](CO)[C@@H](O)[C@H](O)[C@H]2O[C@H]2C[C@](C)(N)[C@H](O)[C@H](C)O2)Oc2ccc(cc2Cl)[C@H]1O
serum creatinine (Sprague Dawley rat, both sexes; intraperitoneal, 200 mg/kg/day, 10 days; reference: baseline): increased

C[C@]1(CO)Cc2ncn(-c3ccc(C#N)c(Cl)c3)c2C(=O)O1
subjects with drug-related somnolence (human; 40 mg multiple doses, fasted): 0%

NCCCC[C@@H]1NC(=O)[C@@H](Cc2c[nH]c3ccccc23)NC(=O)[C@H](c2ccccc2)NC(=O)[C@@H]2C[C@@H](OC(=O)NCCN)CN2C(=O)[C@H](Cc2ccccc2)NC(=O)[C@H](Cc2ccc(OCc3ccccc3)cc2)NC1=O
subjects with injection-site pain (healthy human volunteers; 600 µg twice daily): 27%

C[C@H]1CN(C(=O)CC#N)[C@]12CCN(c1ncnc3[nH]ccc13)C2
exposure multiple over human (dog, male; oral, 0.6 mg/kg, 9 months, repeated dose toxicity): 208 /204

CC[C@H](C)[C@H](NC(=O)[C@H](Cc1ccccc1)NC(=O)[C@H](CCC(=O)O)NC(=O)[C@H](CCCNC(=N)N)NC(=O)[C@H](C)NC(=O)[C@H](C)NC(=O)[C@H](CCC(N)=O)NC(=O)[C@H](CCC(=O)O)NC(=O)[C@H](CCC(=O)O)NC(=O)[C@H](CC(C)C)NC(=O)[C@H](Cc1ccc(O)cc1)NC(=O)[C@H](CO)NC(=O)[C@H](CO)NC(=O)[C@@H](NC(=O)[C@H](CC(=O)O)NC(=O)[C@H](CO)NC(=O)[C@@H](NC(=O)[C@H](Cc1ccccc1)NC(=O)[C@@H](NC(=O)CNC(=O)[C@H](CCC(=O)O)NC(=O)[C@H](C)NC(=O)CCc1cnc[nH]1)[C@@H](C)O)[C@@H](C)O)C(C)C)C(=O)N[C@@H](C)C(=O)N[C@@H](Cc1c[nH]c2ccccc12)C(=O)N[C@@H](CC(C)C)C(=O)N[C@H](C(=O)N[C@@H](CCCNC(=N)N)C(=O)NCC(=O)N[C@@H](CCCNC(=N)N)C(=O)N[C@@H](CCCCNC(=O)COCCOCCNC(=O)COCCOCCNC(=O)CC[C@H](NC(=O)CCCCCCCCCCCCCCCCC(=O)O)C(=O)O)C(=O)NCC(=O)NCC(=O)N[C@@H](CO)C(=O)N[C@@H](CCSC)C(=O)N[C@H](C(=O)N[C@@H](CCCCNc1c(NCCCCCN(O)C(=O)CCC(=O)NCCCCCN(O)C(=O)CCC(=O)NCCCCCN(O)C(C)=O)c(=O)c1=O)C(=O)O)C(C)C)C(C)C [zirconium-89 labelled]
tissue uptake (ex vivo gamma counting; male Sprague-Dawley rat, heart; intravenous, 1 nmol, 72 h): 0.08 %ID/g and 0.078 %ID/g

O=S(=O)(Nc1ccccc1)c1ccc(NC(=S)Nc2ccccc2)cc1
serum enzyme activity (measured: ALKP; male mouse, blood; oral, 20 mg/kg daily, 14 days): 135 U/L

C=CC(=O)Nc1cc(Nc2nccc(Nc3cc(Cl)c(F)cc3C(C)(C)O)n2)c(OC)cc1N1CC[C@@H](N(C)C)C1
patients with paronychia (human patients; oral, 300 mg, treatment-emergent adverse events): 29.4%

CN1CCN(S(=O)(=O)c2cc([N+](=O)[O-])ccc2N(CCOS(C)(=O)=O)CCOS(C)(=O)=O)CC1
AUC(0-t) (naive female NSG mice, plasma; intraperitoneal, 10 mg/kg): 2.17 µM·h

COc1cc2c(Oc3ccc4[nH]c(C)cc4c3F)ccnc2cc1OCC1(N)CC1
sinus arrhythmia incidence (paediatric refractory sarcoma patients; 8 mg): 0%
